Results of several laboratories.
Every numbered part comes from another study and shows a few of its results, in no order. “And” joins repeats or separate records; there may be more than shown.
UniProt Q9UM73, sequence (whole entry, unmodified, looked up): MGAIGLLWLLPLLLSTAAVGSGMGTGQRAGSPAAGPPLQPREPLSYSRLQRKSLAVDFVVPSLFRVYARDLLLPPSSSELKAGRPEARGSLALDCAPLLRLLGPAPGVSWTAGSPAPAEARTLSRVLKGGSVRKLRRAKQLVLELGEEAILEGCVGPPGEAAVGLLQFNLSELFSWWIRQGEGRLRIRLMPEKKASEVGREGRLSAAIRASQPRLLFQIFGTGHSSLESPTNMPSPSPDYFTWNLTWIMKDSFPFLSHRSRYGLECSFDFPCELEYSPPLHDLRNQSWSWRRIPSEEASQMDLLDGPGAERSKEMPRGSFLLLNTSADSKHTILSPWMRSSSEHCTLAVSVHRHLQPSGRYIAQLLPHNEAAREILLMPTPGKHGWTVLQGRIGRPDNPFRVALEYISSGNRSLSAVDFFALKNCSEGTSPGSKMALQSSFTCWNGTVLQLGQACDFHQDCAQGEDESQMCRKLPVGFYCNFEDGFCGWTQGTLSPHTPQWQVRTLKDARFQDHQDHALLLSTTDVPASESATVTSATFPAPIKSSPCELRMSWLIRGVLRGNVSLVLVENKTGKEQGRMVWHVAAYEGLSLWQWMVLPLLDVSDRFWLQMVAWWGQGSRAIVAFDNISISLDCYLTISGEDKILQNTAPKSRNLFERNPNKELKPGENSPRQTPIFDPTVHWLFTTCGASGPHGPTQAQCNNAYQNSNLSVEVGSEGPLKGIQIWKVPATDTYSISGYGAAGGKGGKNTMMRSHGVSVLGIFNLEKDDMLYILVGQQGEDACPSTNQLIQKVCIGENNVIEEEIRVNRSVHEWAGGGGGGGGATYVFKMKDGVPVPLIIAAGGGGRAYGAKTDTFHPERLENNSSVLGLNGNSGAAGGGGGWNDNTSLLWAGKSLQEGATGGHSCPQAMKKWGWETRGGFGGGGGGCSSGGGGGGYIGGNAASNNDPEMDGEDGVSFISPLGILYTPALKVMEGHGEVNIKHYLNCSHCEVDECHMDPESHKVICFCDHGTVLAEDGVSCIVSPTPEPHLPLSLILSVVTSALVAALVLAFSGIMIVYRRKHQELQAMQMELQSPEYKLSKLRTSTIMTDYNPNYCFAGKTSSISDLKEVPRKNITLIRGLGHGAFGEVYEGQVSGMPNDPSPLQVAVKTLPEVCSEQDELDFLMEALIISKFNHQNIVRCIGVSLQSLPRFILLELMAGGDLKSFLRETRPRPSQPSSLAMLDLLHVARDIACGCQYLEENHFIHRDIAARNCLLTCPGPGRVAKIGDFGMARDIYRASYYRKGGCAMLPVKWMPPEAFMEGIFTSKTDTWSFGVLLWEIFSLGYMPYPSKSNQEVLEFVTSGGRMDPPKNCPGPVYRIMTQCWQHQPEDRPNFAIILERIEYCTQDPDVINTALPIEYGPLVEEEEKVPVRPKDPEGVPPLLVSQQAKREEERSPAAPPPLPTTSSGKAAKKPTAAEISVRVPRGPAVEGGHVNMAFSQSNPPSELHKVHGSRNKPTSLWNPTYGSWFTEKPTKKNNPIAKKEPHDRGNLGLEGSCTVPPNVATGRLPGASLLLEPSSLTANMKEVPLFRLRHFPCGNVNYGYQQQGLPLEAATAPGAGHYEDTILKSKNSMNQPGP
UniProt P14616, sequence (whole entry, looked up): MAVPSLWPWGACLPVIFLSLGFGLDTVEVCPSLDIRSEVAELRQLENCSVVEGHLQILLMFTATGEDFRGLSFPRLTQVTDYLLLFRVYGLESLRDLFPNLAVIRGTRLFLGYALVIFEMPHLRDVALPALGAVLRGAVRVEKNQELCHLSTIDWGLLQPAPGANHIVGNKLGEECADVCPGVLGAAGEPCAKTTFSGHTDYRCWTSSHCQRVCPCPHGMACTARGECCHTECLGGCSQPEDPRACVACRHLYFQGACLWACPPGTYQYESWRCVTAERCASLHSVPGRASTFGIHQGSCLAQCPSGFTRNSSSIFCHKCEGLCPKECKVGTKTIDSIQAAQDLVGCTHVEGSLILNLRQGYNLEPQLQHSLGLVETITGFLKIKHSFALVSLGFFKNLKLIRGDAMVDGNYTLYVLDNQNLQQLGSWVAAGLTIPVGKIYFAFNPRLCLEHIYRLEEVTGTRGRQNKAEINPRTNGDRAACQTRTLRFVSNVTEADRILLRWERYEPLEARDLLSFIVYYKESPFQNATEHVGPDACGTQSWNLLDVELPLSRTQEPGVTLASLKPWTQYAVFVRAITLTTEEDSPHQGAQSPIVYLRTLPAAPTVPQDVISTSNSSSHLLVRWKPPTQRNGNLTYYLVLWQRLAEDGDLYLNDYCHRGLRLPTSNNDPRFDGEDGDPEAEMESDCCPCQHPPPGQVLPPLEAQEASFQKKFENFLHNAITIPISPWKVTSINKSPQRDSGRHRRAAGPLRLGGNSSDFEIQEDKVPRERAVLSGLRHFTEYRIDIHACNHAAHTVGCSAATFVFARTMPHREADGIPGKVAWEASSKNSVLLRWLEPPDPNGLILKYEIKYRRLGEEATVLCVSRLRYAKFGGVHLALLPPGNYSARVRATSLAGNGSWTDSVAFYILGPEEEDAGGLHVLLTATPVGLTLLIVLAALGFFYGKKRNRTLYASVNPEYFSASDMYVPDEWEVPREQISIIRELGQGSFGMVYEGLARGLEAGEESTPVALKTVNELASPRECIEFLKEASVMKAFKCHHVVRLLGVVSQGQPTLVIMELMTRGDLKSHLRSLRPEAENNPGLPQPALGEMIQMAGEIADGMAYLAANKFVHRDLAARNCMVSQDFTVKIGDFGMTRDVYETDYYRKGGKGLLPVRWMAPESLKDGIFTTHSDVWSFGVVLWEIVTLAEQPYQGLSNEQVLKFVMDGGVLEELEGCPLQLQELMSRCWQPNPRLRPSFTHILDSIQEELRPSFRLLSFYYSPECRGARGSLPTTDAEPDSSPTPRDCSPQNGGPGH
UniProt Q86Y07, sequence (whole entry, looked up): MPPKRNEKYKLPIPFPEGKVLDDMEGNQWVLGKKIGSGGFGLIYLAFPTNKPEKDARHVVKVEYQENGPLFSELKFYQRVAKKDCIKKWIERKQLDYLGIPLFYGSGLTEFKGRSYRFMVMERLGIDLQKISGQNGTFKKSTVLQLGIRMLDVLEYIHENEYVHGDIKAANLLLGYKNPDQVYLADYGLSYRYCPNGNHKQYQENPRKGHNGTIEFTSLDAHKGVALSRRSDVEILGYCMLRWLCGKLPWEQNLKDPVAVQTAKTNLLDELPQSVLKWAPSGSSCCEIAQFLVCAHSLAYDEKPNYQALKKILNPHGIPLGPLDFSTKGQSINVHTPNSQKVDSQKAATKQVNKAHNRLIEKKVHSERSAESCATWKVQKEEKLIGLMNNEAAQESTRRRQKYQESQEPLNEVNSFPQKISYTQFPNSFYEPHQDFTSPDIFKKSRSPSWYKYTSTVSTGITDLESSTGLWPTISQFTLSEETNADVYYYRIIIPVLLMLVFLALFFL
UniProt P06213, sequence (whole entry, looked up): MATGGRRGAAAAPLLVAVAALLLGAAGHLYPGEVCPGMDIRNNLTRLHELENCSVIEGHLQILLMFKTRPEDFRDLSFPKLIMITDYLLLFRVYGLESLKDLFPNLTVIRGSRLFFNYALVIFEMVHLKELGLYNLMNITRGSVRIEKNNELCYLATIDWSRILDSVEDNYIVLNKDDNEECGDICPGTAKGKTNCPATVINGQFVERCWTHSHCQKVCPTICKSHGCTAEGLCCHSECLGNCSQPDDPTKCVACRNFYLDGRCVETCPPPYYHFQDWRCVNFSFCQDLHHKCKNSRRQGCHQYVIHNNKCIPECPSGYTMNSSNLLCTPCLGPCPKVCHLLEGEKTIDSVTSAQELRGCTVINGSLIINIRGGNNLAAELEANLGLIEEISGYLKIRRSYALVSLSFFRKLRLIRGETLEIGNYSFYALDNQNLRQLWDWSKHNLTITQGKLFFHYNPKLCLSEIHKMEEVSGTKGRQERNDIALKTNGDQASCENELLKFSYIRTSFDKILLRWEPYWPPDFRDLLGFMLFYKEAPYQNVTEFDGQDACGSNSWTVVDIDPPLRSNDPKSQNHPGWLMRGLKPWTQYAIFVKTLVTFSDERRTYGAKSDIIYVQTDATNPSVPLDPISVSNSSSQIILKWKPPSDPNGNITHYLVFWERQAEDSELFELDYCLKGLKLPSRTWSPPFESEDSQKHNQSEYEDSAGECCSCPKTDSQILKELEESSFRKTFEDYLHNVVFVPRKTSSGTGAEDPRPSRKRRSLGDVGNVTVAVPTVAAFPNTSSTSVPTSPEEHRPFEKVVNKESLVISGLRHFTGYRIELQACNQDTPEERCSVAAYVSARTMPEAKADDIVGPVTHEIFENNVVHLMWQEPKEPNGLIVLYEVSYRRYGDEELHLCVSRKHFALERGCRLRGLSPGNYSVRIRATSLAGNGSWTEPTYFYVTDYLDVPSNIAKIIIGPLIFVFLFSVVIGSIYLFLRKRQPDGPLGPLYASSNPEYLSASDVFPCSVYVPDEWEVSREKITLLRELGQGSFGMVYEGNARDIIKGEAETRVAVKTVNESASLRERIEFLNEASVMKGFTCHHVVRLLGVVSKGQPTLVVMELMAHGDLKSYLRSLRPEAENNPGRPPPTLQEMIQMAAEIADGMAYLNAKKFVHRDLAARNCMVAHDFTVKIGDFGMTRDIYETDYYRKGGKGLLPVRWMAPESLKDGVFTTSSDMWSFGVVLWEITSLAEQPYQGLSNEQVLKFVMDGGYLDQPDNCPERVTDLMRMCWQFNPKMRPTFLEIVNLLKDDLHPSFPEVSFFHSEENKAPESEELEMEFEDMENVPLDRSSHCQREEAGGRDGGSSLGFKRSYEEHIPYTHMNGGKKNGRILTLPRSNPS
UniProt Q8TDX7, sequence (whole entry, looked up): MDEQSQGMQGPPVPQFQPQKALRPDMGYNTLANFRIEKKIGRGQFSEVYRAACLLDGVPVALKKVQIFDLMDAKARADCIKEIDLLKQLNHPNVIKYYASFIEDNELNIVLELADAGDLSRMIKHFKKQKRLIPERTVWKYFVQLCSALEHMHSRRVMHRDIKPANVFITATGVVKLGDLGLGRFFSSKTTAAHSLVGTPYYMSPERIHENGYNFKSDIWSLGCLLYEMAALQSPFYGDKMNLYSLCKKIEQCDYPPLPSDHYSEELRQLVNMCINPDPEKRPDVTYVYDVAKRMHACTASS

Block 1
Structure (SMILES): COc1ccc2c(c1)c(C1=C(c3c[nH]c4ccccc34)C(=O)NC1=O)cn2CCCN(C)C
Read-out: enzyme activity
Action: inhibitor
Concentration: 0.5 µM
Reference: control
target	remaining activity [%]
LIM domain kinase 1 (LIMK1, Homo sapiens, UniProt P53667)	81.8
TAOK3 (Homo sapiens, UniProt Q9H2K8)	78.2
STK25 (Homo sapiens, UniProt O00506)	55.7
MARK3 (Homo sapiens, UniProt P27448)	92.2
PRKX (Homo sapiens, UniProt P51817)	102
AKT1 (Homo sapiens, UniProt P31749)	99
Insulin receptor (INSR, Homo sapiens, UniProt P06213)	94.1
FLT4 (Homo sapiens, UniProt P35916)	23.6
FYN (Homo sapiens, UniProt P06241)	110
NEK11 (Homo sapiens, UniProt Q8NG66)	91.6
HIPK1 (Homo sapiens, UniProt Q86Z02)	77.7
NLK (Homo sapiens, UniProt Q9UBE8)	87.9
SRC (Homo sapiens, UniProt P12931)	79.8
FER (Homo sapiens, UniProt P16591)	70.9
CDC42BPA (Homo sapiens, UniProt Q5VT25)	89.2
MATK (Homo sapiens, UniProt P42679)	99.3
ITK (Homo sapiens, UniProt Q08881)	70.4
ALK (Homo sapiens, UniProt Q9UM73)	96
PKN1 (Homo sapiens, UniProt Q16512)	34.7
PASK (Homo sapiens, UniProt Q96RG2)	83.8
Cyclin-dependent kinase 3, with cyclin E (CDK3, Homo sapiens, UniProt Q00526)	78.8
FGR (Homo sapiens, UniProt P09769)	107

Block 2
Structure (SMILES): COc1cc(C(=O)N2CCC(N3CCN(C)CC3)CC2)ccc1Nc1ncc2c(n1)N(C)c1ccccc1C(=O)N2C
tested on	test	test system	setting	inhibition
BRSK2 (mouse)	probe labelling, KiNativ ADP probe	mouse brain lysate	1 µM, LYS2 labelled site	-14.7%
MAP/microtubule affinity-regulating kinase 3 (Mark3, Mus musculus, UniProt Q03141)	KiNativ profiling	mouse brain lysate	1 µM, LYS1 site, added: ATP acyl phosphate probe	11.5%
TLK1 and TLK2 human	KiNativ profiling	human PBMC	0.1 µM, LYS2 site, added: ADP acyl phosphate probe	-8.8%
MAP3K2 and MAP3K3 (mouse)	probe labelling, KiNativ, refers to: DIkGANILR peptide, LYS2 site	brain tissue lysate (mouse)	1 µM, added: ATP acyl-phosphate probe	-7.5%
LYN (human)	probe labelling, KiNativ ATP probe	human PBMC lysate	concentration not given, LYS1 labelled site	-1.2%
MYLK	KiNativ ATP probe	mouse brain lysate	1 µM, LYS2 site	8.9%
mouse ROCK1 and ROCK2	probe labelling, KiNativ ADP probe	mouse brain lysate	0.1 µM	2.7%
MST2 (mouse)	probe labelling, KiNativ ATP probe	mouse brain lysate	0.1 µM, LYS1 labelled site	-159%
FER human	KiNativ profiling	human PBMC	concentration not given, activation loop site, added: ATP acyl phosphate probe	9.8%
SYK (mouse)	KiNativ ADP probe	mouse brain tissue	0.1 µM, probe site Lys1	5.5%
PKCe (mouse)	probe labelling, KiNativ, refers to: LYS1 site peptide	brain tissue lysate (mouse)	1 µM, added: ATP acyl-phosphate probe	14.6%
mouse MAP3K5/MAP3K6/MAP3K7	probe labelling, KiNativ ADP probe	mouse brain lysate	1 µM, LYS1 site IAIkEIPER	6.6%
ZC1/HGK (mouse)	probe labelling, KiNativ, refers to: LYS1 site peptide	brain tissue lysate (mouse)	0.1 µM, added: ADP acyl-phosphate probe	-21.7% and -25%
NEK9 (mouse)	probe labelling, KiNativ ATP probe	mouse brain lysate	0.1 µM, LYS1 labelled site	-7.2%
FYN (human)	probe labelling, KiNativ ADP probe	human PBMC lysate	concentration not given, LYS1 labelled site	-4.7%
STLK5 (mouse)	KiNativ ATP probe	mouse brain tissue	0.1 µM, probe site Lys2	-14.3%
PIP4K2C (mouse)	probe labelling, KiNativ, refers to: ATP site peptide	brain tissue lysate (mouse)	1 µM, added: ATP acyl-phosphate probe	-4.3%
human PBMC	probe labeling, inhibitor, KiNativ profiling, refers to: FYAVkVLQK	cell lysate	concentration not given, LYS1 site, added: ATP acyl-phosphate probe 1 µM	0.8%

Block 3
Organism: Sarcocystis neurona
Read-out: parasite activity
Concentration: 10 µM
Time: 96 h
Structure (SMILES)	activity class
[H]/N=C(/NCCCCC)N/N=C/c1c[nH]c2ccc(OC)cc12	active
CCOC(=O)N1CCC(=C2c3ccc(Cl)cc3CCc3cccnc32)CC1	inactive
Oc1ccc(C2CNCCc3c2cc(O)c(O)c3Cl)cc1 (stereo not shown)	inactive
CCOC(=O)C1=C(C)NC(C)=C(C(=O)OCC)C1c1ccccc1/C=C/C(=O)OC(C)(C)C	inactive
COc1cc(/C=C/c2ccc(O)cc2)cc(OC)c1	inactive
CC/C(=C(\c1ccccc1)c1ccc(OCCN(C)C)cc1)c1ccccc1	inactive
CC(=O)NC[C@H]1CN(c2ccc(N3CCOCC3)c(F)c2)C(=O)O1	inactive
CCCCNc1cc(C(=O)O)cc(S(N)(=O)=O)c1Oc1ccccc1	inactive
CC(C)[N+]1(C)[C@@H]2CC[C@H]1C[C@@H](OC(=O)C(CO)c1ccccc1)C2 (stereo partly shown)	inactive
C#C[C@]1(O)CC[C@H]2[C@@H]3CCc4cc(OC)ccc4[C@H]3CC[C@@]21C	inactive
c1ccc2[nH]c(-c3cscn3)nc2c1	inactive
Cc1onc(-c2ccccc2)c1-c1ccc(S(N)(=O)=O)cc1	inactive
CC(C)(C)NCC(O)c1cc(O)cc(O)c1 (stereo not shown)	inactive
CC(=O)OCC(=O)[C@@]1(O)CC[C@H]2[C@@H]3CCC4=CC(=O)C=C[C@]4(C)[C@H]3[C@@H](O)C[C@@]21C	inactive
CN(CCCN1c2ccccc2CCc2ccccc21)CC(=O)c1ccc(Cl)cc1	inactive
CC1=C(/C=C/C(C)=C/C=C/C(C)=C/C(=O)O)C(C)(C)CCC1	inactive
C/C(=C\C(=O)OCCCCCCCCC(=O)O)C[C@@H]1OC[C@H](C[C@@H]2O[C@H]2[C@@H](C)[C@H](C)O)[C@@H](O)[C@H]1O	inactive

Block 4
SMILES: O=C(Nc1cccnn1)N1CC(C/C=C/c2cncc(Oc3ccc(C(F)(F)F)cn3)n2)C1
Technique: competition with immobilised ligand
Concentration: 1 µM
target	read-out	remaining binding [%]
Tyrosine-protein kinase ABL1, phosphorylated (ABL1, Homo sapiens, UniProt P00519, Y253F)	cell-free assay	92
CAMKK2 (Homo sapiens, UniProt Q96RR4)	cell-free assay	100
EPHA1 (Homo sapiens, UniProt P21709)	cell-free assay	100
DDR2 (Homo sapiens, UniProt Q16832)	cell-free assay	80
PIP4K2B (Homo sapiens, UniProt P78356)	cell-free assay	96
INSRR (Homo sapiens, UniProt P14616)	cell-free assay	100
FLT3 (Homo sapiens, UniProt P36888, D835V)	cell-free assay	77
Myosin-IIIa (MYO3A, Homo sapiens, UniProt Q8NEV4)	binding	100
FLT3 (Homo sapiens, UniProt P36888, D835Y)	cell-free assay	100
PKN2 (Homo sapiens, UniProt Q16513)	cell-free assay	100
MAPKAPK2 (Homo sapiens, UniProt P49137)	cell-free assay	100
CDK11A (Homo sapiens, UniProt Q9UQ88)	binding	100
EPHB2 (Homo sapiens, UniProt P29323)	cell-free assay	100
GAK (Homo sapiens, UniProt O14976)	cell-free assay	100
CDK15 (Homo sapiens, UniProt Q96Q40)	cell-free assay	100
EGFR (Homo sapiens, UniProt P00533, L858R/T790M)	cell-free assay	82
Ribosomal protein S6 kinase alpha-3, C-terminal kinase domain (RPS6KA3, Homo sapiens, UniProt P51812)	cell-free assay	89
CAMK2D (Homo sapiens, UniProt Q13557)	cell-free assay	100
NEK7 (Homo sapiens, UniProt Q8TDX7)	cell-free assay	100
VRK2 (Homo sapiens, UniProt Q86Y07)	cell-free assay	97
MAP2K6 (Homo sapiens, UniProt P52564)	cell-free assay	100
ALK (Homo sapiens, UniProt Q9UM73, C1156Y)	cell-free assay	81
MAPKAPK5 (Homo sapiens, UniProt Q8IW41)	cell-free assay	76
RIPK4 (Homo sapiens, UniProt P57078)	cell-free assay	74
DSTYK (Homo sapiens, UniProt Q6XUX3)	cell-free assay	65

Excerpt of the above (block 2):
tested on	test	test system	setting	inhibition
LYN (human)	probe labelling, KiNativ ATP probe	human PBMC lysate	concentration not given, LYS1 labelled site	-1.2%
MYLK	KiNativ ATP probe	mouse brain lysate	1 µM, LYS2 site	8.9%
mouse ROCK1 and ROCK2	probe labelling, KiNativ ADP probe	mouse brain lysate	0.1 µM	2.7%
MST2 (mouse)	probe labelling, KiNativ ATP probe	mouse brain lysate	0.1 µM, LYS1 labelled site	-159%
FER human	KiNativ profiling	human PBMC	concentration not given, activation loop site, added: ATP acyl phosphate probe	9.8%
SYK (mouse)	KiNativ ADP probe	mouse brain tissue	0.1 µM, probe site Lys1	5.5%
PKCe (mouse)	probe labelling, KiNativ, refers to: LYS1 site peptide	brain tissue lysate (mouse)	1 µM, added: ATP acyl-phosphate probe	14.6%
mouse MAP3K5/MAP3K6/MAP3K7	probe labelling, KiNativ ADP probe	mouse brain lysate	1 µM, LYS1 site IAIkEIPER	6.6%
